Measured values from different studies.
Each numbered part is a random draw from the data of one study; scales do not carry over between parts. Positions count from the first letter of the parent shown.

Block 1
Target: CCNB2, cyclin fold, Cln2 fusion (human)
Technique: yeast growth competition, sequencing
Sample: yeast
Setting: weak parent motif
Relative to: not given
Reading: higher = stronger binding
Parent: CDKN1A docking peptide (human); SKACRRLFGPVDS; partner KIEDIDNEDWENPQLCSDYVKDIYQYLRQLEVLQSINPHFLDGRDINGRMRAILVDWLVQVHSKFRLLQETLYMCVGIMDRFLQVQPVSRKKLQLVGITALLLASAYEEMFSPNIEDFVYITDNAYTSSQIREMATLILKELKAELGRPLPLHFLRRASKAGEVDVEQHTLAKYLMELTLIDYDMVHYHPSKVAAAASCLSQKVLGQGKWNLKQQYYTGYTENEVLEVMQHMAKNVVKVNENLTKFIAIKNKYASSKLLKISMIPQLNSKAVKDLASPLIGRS
Variant	normalised enrichment score
SKACTRLFGPVDS [R5T]	-0.0559
SKACRRLFGYVDS [P10Y]	0.499
SKACRRLFGPADS [V11A]	0.476
SKTCRRLFGPVDS [A3T]	0.3
SKICRRLFGPVDS [A3I]	0.631
SKACRRLFGPVQS [D12Q]	0.356
SHACRRLFGPVDS [K2H]	0.256
SKACRRLFGPLDS [V11L]	0.148
SKAIRRLFGPVDS [C4I]	0.24
SKACRRLFGKVDS [P10K]	0.304
SKACRYLFGPVDS [R6Y]	0.381
SKATRRLFGPVDS [C4T]	0.767
SKACRRLFEPVDS [G9E]	0.128
SKACRRTFGPVDS [L7T]	0.774
SKACRRLFMPVDS [G9M]	0.243
SKACRRLFCPVDS [G9C]	0.189

Block 2
Target: Interferon regulatory factor 5, full length, phosphomimetic (IRF5, Homo sapiens, UniProt Q13568-2, residues 1-514, S451D/S453D/S456D/S462D)
Technique: protein-binding microarray
Form: double-stranded DNA, one strand shown
Sample: in vitro
Concentration: 940 nM top
Setting: 60-bp whole probe
Together with: salmon DNA 0.4 mg/ml
Relative to: random background probes
Reading: higher = stronger binding
Constant ends, left off below: GCCTAGCAC … GTCTTGATTCGCTTGACGCTGCTG
Oligonucleotide	fitted relative affinity [z-score]
TTTACTTTCTGAATGCCCTCGTGCTAG	2.28
TCAATTCTTTTTATGCTACTGTGCTAG	1.13
TTAGATTTCAATTTCGATTAGTGCTAG	1.71
GCTAGTTCAGTTCTCTAGAAGTGCTAG	-0.124
TCAGTTCTCTTTTATTTACTGTGCTAG	1.6
GACGGTATCGGTATCGGGAAGTGCTAG	8.83
GACGACTTCAGTTCCGAGACGTGCTAG	0.328
GACGGGTTCCTTTCCCTGACGTGCTAG	0.216
TCAACTTTCTTTACTTCACTGTGCTAG	1.85
GACGGTTTCCTACTGATGACGTGCTAG	0.622
GACGGTATCGGCATCGGGACGTGCTAG	3.76
TTAGATCCCAGACTGGATTAGTGCTAG	-0.507
TTAGATTTCGGGTATCGTTTAGTGCTA	2.85
GGCGATTTCAGTTCCGAGACGTGCTAG	1.17
TCATTAATAAGGTTTCCAACTGTGCTA	0.098
TTAGATCTCGGACTGGGTTAGTGCTAG	0.0493
TTAGATTTCAGTCTCCATTAGTGCTAG	1.08
TTAGGTTTCGGGTATCCGTTAGTGCTA	10.8
TTAGGTCTCCTTATTCTTTAGTGCTAG	0.755

Block 3
Target: RNA binding protein fox-1 homolog 2, RRM domain, GST-SBP tag (RBFOX2, Homo sapiens, UniProt O43251-10, residues 100-194)
Technique: RNA Bind-n-Seq
Form: RNA
Sample: in vitro
Concentration: 365 nM
Setting: natural RNA segment, single round, ends assumed
Relative to: no-protein control
Reading: higher = stronger binding
Construct (chain): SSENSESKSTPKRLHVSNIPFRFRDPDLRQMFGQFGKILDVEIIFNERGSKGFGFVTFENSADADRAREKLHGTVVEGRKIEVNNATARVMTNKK
Oligonucleotide	RBNS enrichment (R)
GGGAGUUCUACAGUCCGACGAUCUCAAGGCCCGGCCCCAUCAGAGGCUGGGGGAGGCGGCACAUUGGCAGUGUGUCACACUGAGCUGGGCACCACAGGCUGCCUCAUGACCCUCCUGUCCAGCAGGUAGUGGGUGGAAUUCUCGGGUGCCAA	0.246
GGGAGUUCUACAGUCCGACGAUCGAAGGAAGGAAGGAAGGAAGGAAGGAAAGACUCAGCUUACUUGUAUCACAGUCUUGACAAAAUUCCUUUUCCCUAAAGCACACUUUGACAUUGUCACAUUAUUGACACAGUGGAAUUCUCGGGUGCCAA	0.279
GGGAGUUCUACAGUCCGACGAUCAUUUUUUUGGUUAAGACUUUUUCAUUGAUCUGAAUUGCUUAAAUUGCAUAUAUUGUAAAAUAGGAUCAGAUGUAUAUUUUAAACUAAUUUCAAUGGAUUUUCCUCUUGAAUGGAAUUCUCGGGUGCCAA	0.726
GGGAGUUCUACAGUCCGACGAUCUCCCUCUUUAGGGACUGUCUGUCCAGUGACAGAUUAGCCAUAGAGUCAUGACACUUAGUAAGUUUGCUUCCUUUCUCUGUCAUUUGAUCCUAAGGUAACAUAUGUCUCACUGGAAUUCUCGGGUGCCAA	0.208
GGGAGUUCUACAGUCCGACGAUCAAAAGCAAAAAACGUGAGGUUGGGACUCAGUAGGUGAGGGUGCUUGCAGCCAAACCUGAUGACCUGCAUUCAAUUCCUGGGUCCCACGGGACAGAGGGAGAGAGUCCACUUGGAAUUCUCGGGUGCCAA	0.287
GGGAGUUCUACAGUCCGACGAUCCUCAGACAGGUACUAUUUGUAAGUAGCAUAGACAGCAGGGGGGUGGGGUGGUCAACCUGUGUCCCCUCUGAGCCGUUAUGCCAAAGGUCACUAAGGACAUUUAGAAUCCCUGGAAUUCUCGGGUGCCAA	0.204
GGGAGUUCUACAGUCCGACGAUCCCACAAGGCUUUGAGACACAUCCAGAGAUGAGGUGGUAUCAGACCUGUCCUUCCACACCAAAGACAUGGUGGUGCUGCUGCUGCUGCUUCUGCUGGUGAAGUCUGUGUCCUGGAAUUCUCGGGUGCCAA	0.39
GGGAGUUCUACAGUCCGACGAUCGUAGUCUGCCCAAUUCCUGCUGCACCUGAAGGGGAAAAAGCAGUUUAUCUGUCUCUUCCCCAAAUAACCAUUUUGUAAUUUAUUUUUUAAGCGGGCUCCUGACAAUGAGAUGGAAUUCUCGGGUGCCAA	0.613

Block 4
Target: Histone acetyltransferase KAT6A, winged helix 1, GST fusion (KAT6A, Homo sapiens, UniProt Q92794, residues 1-85)
Technique: protein binding microarray
Form: double-stranded DNA, one strand shown
Sample: in vitro
Concentration: not given
Setting: 8-mer, flanks averaged, mean of 2 arrays, mostly near background
Relative to: not given
Reading: higher = stronger binding
Construct (chain): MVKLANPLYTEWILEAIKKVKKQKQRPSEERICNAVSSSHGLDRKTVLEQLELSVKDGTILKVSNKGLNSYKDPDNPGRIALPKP
Oligonucleotide	E-score
AAGGGATT	-0.0423
CGATGTCA	-0.0156
AATCACAC	-0.173
AGGACCTC	-0.00782
AATGCAAA	-0.223
GAAGTGCC	-0.053
ACGTCAAC	-0.0739
CATCGGAA	0.0145
GAGCAATA	-0.195
CTCTGAGC	-0.153
ACAAAAGG	0.00266
AAAGCCTT	-0.126
GCACAGAC	0.026
ATCGATCA	-0.191
GATCCCTA	-0.0792
CTTGTTAC	-0.102
AACCGGCG	0.399
CATAAGAA	-0.188
ACGGGTAT	0.25
GGAGTCTA	0.0208
CAGTACCC	-0.0739
CGTCGATC	0.11
AGGACGAT	-0.0612
AATTTGCA	-0.276
ACGCCTGA	-0.169

Repeated from above (block 1):
Variant	normalised enrichment score
SKACRRLFGPLDS [V11L]	0.148
SKAIRRLFGPVDS [C4I]	0.24
SKACRRLFGKVDS [P10K]	0.304
SKACRYLFGPVDS [R6Y]	0.381
SKATRRLFGPVDS [C4T]	0.767
SKACRRLFEPVDS [G9E]	0.128
SKACRRTFGPVDS [L7T]	0.774
SKACRRLFMPVDS [G9M]	0.243
